Measured values pooled from the literature.
Each numbered part is a random draw from the data of one study; scales do not carry over between parts.

Set 1
Target: Histone acetyltransferase KAT6A, winged helix 2, GST fusion (KAT6A, Homo sapiens, UniProt Q92794, residues 85-181)
Technique: protein binding microarray
Molecule type: double-stranded DNA, one strand shown
Sample: in vitro
Concentration: not given
Setting: 8-mer, flanks averaged, mean of 2 arrays, mostly near background
Baseline: not given
Reading: higher = stronger binding
Target sequence (chain): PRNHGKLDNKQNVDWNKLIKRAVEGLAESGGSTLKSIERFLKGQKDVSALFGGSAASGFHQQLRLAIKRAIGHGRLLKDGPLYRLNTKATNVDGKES
The E-score of `CACTATTA` is reported as -0.0668.
With `CATCTATA` the E-score was -0.126.
With `TATAGCAA` the E-score was 0.085.
`AGTGAGGC` gave an E-score of 0.0189.
For `CGTACTGA`, the E-score was -0.0996.
`CCGAGCTA` has an E-score of -0.00803.
With `CGAGAATC` the E-score was 0.061.
With `CCGAAGTA` the E-score was 0.14.

Set 2
Target: Replicase polyprotein 1ab, main protease (rep, Severe acute respiratory syndrome coronavirus 2, UniProt P0DTD1)
Observed: enzyme activity
Action: inhibitor
Concentration: 20 µM
Setting: hit confirmation
The inhibition of `NS(=O)(=O)c1ccc2c(c1)C1C=CCC1C(c1ccc(Br)cc1)N2` (stereo not drawn) is reported as 1.6%.
`CCCCCCCCCCCCCCCCCC[S+](CCC)c1ccccc1C(=O)OCC` (stereo not drawn) has an inhibition of 74.6%.
`C/C(=N\NC(=N)N)c1cc(NC(=O)CCCCCCCCC(=O)Nc2cc(/C(C)=N/NC(=N)N)cc(/C(C)=N/NC(=N)N)c2)cc(/C(C)=N/NC(=N)N)c1` gave an inhibition of 13.7%.
For `CCOC(=O)Cc1ccc(-c2ccccc2)cc1`, the inhibition was 99.8%.

Set 3
Cell line: HEK-293T/ACE2
Concentration: concentration not given
Time: 16 (unit not given)
Baseline: vehicle
`CCCCCCCCCCCCCCCCOP(=O)([O-])OCC[N+](C)(C)C` gave a viability of 106%.
With `CC(=O)OC(C)C[N+](C)(C)C` (stereo not drawn) the viability was 101%.
The viability of `NCCCNCCSP(=O)(O)O` is reported as 98.7%.
The viability of `CCC(=O)O[C@]1(C(=O)SCF)[C@H](C)C[C@H]2[C@@H]3C[C@H](F)C4=CC(=O)C=C[C@]4(C)[C@@]3(F)[C@@H](O)C[C@@]21C` is reported as 106%.
The viability of `CC(C(=O)O)c1ccc(-c2ccccc2)c(F)c1` (stereo not drawn) is reported as 103%.

Single results of other studies
With `O=C(Nc1cccnc1)N1CCC(Cc2cccc(Oc3ccc(C(F)(F)F)cn3)c2)CC1` the IC50 was 10.2 µM (Replicase polyprotein 1ab, polymerase (rep, Severe acute respiratory syndrome coronavirus 2, UniProt P0DTD1); enzyme activity, inhibitor).

A few entries again (set 1):
The E-score of `CACTATTA` is reported as -0.0668.
